Measurements from different studies.
Each line is one published result; not all experiments were run side by side. Numbers after ± are the reported error.
GLP1R: Glucagon-like peptide 1 receptor (GLP1R, Homo sapiens, UniProt P43220)
Sequence of UniProt Q15102 (whole entry, looked up): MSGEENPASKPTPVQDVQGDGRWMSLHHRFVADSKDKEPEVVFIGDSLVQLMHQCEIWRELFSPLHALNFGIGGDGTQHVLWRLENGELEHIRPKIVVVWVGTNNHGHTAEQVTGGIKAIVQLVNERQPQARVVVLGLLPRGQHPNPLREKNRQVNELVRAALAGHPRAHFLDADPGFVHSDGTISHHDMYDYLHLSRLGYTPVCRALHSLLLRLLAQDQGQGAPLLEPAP
Sequence of UniProt Q8IZF5 (whole entry, looked up): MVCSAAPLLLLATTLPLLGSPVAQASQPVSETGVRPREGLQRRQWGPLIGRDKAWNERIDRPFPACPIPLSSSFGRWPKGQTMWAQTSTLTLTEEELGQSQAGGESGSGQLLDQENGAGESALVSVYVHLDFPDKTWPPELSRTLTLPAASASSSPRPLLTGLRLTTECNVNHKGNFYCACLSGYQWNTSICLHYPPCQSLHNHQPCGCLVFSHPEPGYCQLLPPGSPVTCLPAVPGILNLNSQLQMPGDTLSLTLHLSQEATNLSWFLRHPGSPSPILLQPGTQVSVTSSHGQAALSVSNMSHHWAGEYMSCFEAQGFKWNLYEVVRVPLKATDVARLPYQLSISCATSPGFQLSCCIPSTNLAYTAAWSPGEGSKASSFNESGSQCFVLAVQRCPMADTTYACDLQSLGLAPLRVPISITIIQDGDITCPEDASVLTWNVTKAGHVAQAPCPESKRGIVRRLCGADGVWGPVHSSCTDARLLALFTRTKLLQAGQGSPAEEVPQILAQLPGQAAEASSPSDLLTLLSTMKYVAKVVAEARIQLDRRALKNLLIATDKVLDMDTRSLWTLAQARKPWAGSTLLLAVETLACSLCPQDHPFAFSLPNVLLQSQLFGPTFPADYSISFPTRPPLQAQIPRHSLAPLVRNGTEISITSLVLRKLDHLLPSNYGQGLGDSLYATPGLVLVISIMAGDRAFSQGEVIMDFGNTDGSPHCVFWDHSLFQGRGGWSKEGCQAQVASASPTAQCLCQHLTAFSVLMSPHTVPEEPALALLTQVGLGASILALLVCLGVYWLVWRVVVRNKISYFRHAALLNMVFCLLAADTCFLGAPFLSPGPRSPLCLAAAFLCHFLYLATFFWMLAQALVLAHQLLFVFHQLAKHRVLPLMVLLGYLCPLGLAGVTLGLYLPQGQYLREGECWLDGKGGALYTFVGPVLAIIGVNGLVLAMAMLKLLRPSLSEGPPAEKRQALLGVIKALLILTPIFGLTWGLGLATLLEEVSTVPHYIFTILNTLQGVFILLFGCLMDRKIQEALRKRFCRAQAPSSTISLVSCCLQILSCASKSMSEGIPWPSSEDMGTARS
Sequence of UniProt P30291 (whole entry, looked up): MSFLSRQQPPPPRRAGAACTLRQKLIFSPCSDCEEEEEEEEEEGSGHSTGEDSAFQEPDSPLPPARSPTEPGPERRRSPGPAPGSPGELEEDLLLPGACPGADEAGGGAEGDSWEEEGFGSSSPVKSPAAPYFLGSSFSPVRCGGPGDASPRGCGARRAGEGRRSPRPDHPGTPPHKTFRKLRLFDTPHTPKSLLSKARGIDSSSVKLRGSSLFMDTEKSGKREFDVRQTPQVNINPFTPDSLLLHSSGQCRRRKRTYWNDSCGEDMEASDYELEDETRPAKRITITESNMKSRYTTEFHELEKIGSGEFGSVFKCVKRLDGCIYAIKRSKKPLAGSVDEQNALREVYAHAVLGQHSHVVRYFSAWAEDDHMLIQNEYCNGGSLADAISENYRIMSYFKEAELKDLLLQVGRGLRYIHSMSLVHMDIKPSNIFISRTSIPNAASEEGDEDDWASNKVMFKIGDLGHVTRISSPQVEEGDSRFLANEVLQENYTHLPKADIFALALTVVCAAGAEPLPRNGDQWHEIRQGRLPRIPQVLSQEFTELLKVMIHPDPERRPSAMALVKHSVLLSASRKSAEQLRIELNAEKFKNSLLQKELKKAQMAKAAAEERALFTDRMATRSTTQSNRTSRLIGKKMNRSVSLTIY

O=C(O)c1cn(Cc2cccc(Cl)c2)c2ccccc12  serum ALT, AST, ALP, GGT (F344 rat, male, serum; oral, 150 mg/kg/day, 2 days; reference: vehicle): no effect
Cc1ncc2n1-c1ccc(Cl)cc1C(c1ccccc1F)=NC2  AUC(0-inf) ratio (human, plasma; oral, single dose, added: dose, single, rimegepant 300 mg; reference: with over without rimegepant): 186%
C#Cc1ccc2c(c1)C(c1ccccn1)=NCc1c(-c3cnco3)ncn1-2.Cl  solubility (shake flask; aqueous buffer; 24 h, pH 1, 25 °C): 13.1 mg/mL
Cc1onc(-c2c(F)cccc2Cl)c1C(=O)N[C@@H]1C(=O)N2[C@@H]1SC(C)(C)[C@@H]2C(=O)O  total plasma concentration (LC-MS/MS; human patients, plasma; dose not given, therapeutic drug monitoring, median): 12 mg/L
CCN(CC)C(=O)[C@@H]1C=C2c3cccc4[nH]cc(c34)C[C@H]2N(C)C1  List of Complaints score (measured: impaired concentration; healthy volunteers; dose not given, 12 to 24 h; reference: placebo, direction not given): 3
CN1CC[C@@H](c2c(O)cc(O)c3c(=O)cc(-c4ccc(C(F)(F)F)cc4Cl)oc23)[C@@H]1CO  patients with adverse event (measured: Neutropenia; B-cell malignancies; oral, 150 mg, intermittent dosing): 0%
O=C1c2c(O)c(=O)ccn2N([C@@H]2c3ccccc3SCc3c2ccc(F)c3F)[C@@H]2COCCN12  plasma concentration (BALB/c mice, plasma; oral, 0.5 mg/kg baloxavir marboxil, 0.5 h): 4.84 ng/mL
C[C@H]1CN(c2n[nH]c3nc(N[C@H]4CC[C@H](NS(=O)(=O)CCC(F)(F)F)CC4)ncc23)CCO1  relative abundance (Paxillin (PXN, Homo sapiens, UniProt P49023); competitor, Kinobeads competition, measured: PXN; human cell extract; 20 µM; reference: vehicle): 1.21
Cc1ncc2n1-c1ccc(Cl)cc1C(c1ccccc1F)=NC2  AUC(0-90 min) (wild-type mice, plasma; intravenous, 0.3 mg/kg, added: 3-day PB, BC 500 mg/kg and PCN 10 mg/kg): 0.0367 ± 0.0043 µM·h
COC(=O)OCOc1c2n(ccc1=O)N([C@@H]1c3ccccc3SCc3c1ccc(F)c3F)[C@@H]1COC3(CC3)CN1C2=O  share of hydrolytic clearance by AADAC (human liver S9; time not given, added: vinblastine): 86.5%
CO[C@H]1C[C@@H]2CC[C@@H](C)[C@@](O)(O2)C(=O)C(=O)N2CCCC[C@H]2C(=O)O[C@H]([C@H](C)C[C@@H]2CC[C@@H](OC(=O)NCCOCCOCCOCCOCCOCCOCCOCCOCCC(=O)N3CCc4cc(Cn5nc(-c6ccc7oc(N)nc7c6)c6c(N)ncnc65)ccc4C3)[C@H](OC)C2)C[C@@H](O)[C@H](C)/C=C(\C)[C@@H](O)[C@@H](OC)C(=O)[C@H](C)C[C@H](C)/C=C/C=C/C=C/1C  TRAE incidence (phase 1 dose escalation, measured: mucositis; advanced solid tumour patients; intravenous, 6 mg weekly, any grade): 50%
C=C1C[C@@H]2[C@H](CC[C@]3(C)C(=O)CC[C@@H]23)[C@@]2(C)C=CC(=O)C=C12  Km (glutathione conjugate formation, substrate; pooled human liver cytosol; 1 h, 37 °C, added: GSH 5 mM): 46 ± 12 µM
O=C(c1ccc(Cl)cc1)N1CCN2C(=O)N(OC(=O)N3CCOc4ccccc43)C(=O)C2C1 (stereo not drawn)  median ratio (Platelet-activating factor acetylhydrolase IB subunit alpha1 (Homo sapiens, UniProt Q15102); enzyme activity, inhibitor, MS-based ABPP; SW-620 conditioned medium; 10 µM, 1 h, 37 °C; reference: compound over DMSO, lower = stronger inhibition): 1.09
Cc1ncc2n1-c1ccc(Cl)cc1C(c1ccccc1F)=NC2  oral bioavailability (human): 65%
CC(C)C[C@@H]1NC(=O)[C@H](CC(C)C)NC(=O)[C@H](Cc2c[nH]c3ccccc23)NC(=O)[C@H](CO)NC(=O)[C@H](Cc2c[nH]c3ccccc23)NC(=O)[C@@H]2CCCN2C(=O)[C@H](CC(C)C)NC(=O)[C@H](Cc2c[nH]cn2)NC(=O)[C@@H]2CCCN2C(=O)[C@H](CC(N)=O)NC(=O)[C@H](C)NC(=O)[C@H](Cc2ccc(O)cc2)NC(=O)[C@H](CS)NC(=O)[C@H](CCCCNC(=O)CN2CCN(CC(=O)O)CCN(CC(=O)O)CCN(CC(=O)O)CC2)NC1=O [lutetium-177 labelled]  tissue uptake (Balb/c mouse, female, 4T1 tumour, intestine; intravenous, 3.7 MBq, 96 h): 0.81 %ID
C=C1C[C@H]2[C@@H]3CC[C@H](O)[C@@]3(C)CC[C@@H]2[C@@]2(C)C=CC(=O)C=C12  share of total exemestane metabolites (postmenopausal women, serum; UGT2B17 and GSTA1 genotypes): 1.8%
CC[C@H](C)[C@H](NC(=O)[C@H](Cc1ccccc1)NC(=O)[C@H](CCC(=O)O)NC(=O)[C@H](CCCNC(=N)N)NC(=O)[C@H](C)NC(=O)[C@H](C)NC(=O)[C@H](CCC(N)=O)NC(=O)[C@H](CCC(=O)O)NC(=O)[C@H](CCC(=O)O)NC(=O)[C@H](CC(C)C)NC(=O)[C@H](Cc1ccc(O)cc1)NC(=O)[C@H](CO)NC(=O)[C@H](CO)NC(=O)[C@@H](NC(=O)[C@H](CC(=O)O)NC(=O)[C@H](CO)NC(=O)[C@@H](NC(=O)[C@H](Cc1ccccc1)NC(=O)[C@@H](NC(=O)CNC(=O)[C@H](CCC(=O)O)NC(=O)[C@H](C)NC(=O)CCc1c[nH]cn1)[C@@H](C)O)[C@@H](C)O)C(C)C)C(=O)N[C@@H](C)C(=O)N[C@@H](Cc1c[nH]c2ccccc12)C(=O)N[C@@H](CC(C)C)C(=O)N[C@H](C(=O)N[C@@H](CCCNC(=N)N)C(=O)NCC(=O)N[C@@H](CCCNC(=N)N)C(=O)N[C@@H](CCCCNC(=O)COCCOCCNC(=O)COCCOCCNC(=O)CC[C@H](NC(=O)CCCCCCCCCCCCCCCCC(=O)O)C(=O)O)C(=O)NCC(=O)NCC(=O)N[C@@H](CO)C(=O)N[C@@H](CCCCNc1c(NCCCCCN(O)C(=O)CCC(=O)NCCCCCN(O)C(=O)CCC(=O)NCCCCCN(O)C(C)=O)c(=O)c1=O)C(=O)O)C(C)C [zirconium-89 labelled]  tissue uptake (rat, heart; iv, 3 nmol/kg, 168 h, ex vivo): 0.09 %ID/g
Cc1ccc(-c2nc3ccc(C)cn3c2CC(=O)N(C)C)cc1  fu,mic (human liver microsomes 0.5 mg/mL; 5 µM, 24 h): 0.985
CC(C)[C@@H]1NC(=O)[C@H](Cc2ccccc2)NC(=O)[C@@H]2NC(=O)[C@H](Cc3ccccc3)NC(=O)[C@@H]3CCCN3C(=O)CNC(=O)[C@H](Cc3ccccc3)NC(=O)[C@@H]3CNCCCC[C@@H](C(=O)O)NC(=O)[C@@H]4NC(=O)[C@H](CC(N)=O)NC(=O)CNC(=O)[C@H]([C@@H](O)C(=O)O)NC(=O)[C@H](CSC[C@@H](NC(=O)[C@H](CCC(N)=O)NC(=O)[C@H](CCCCNC(=O)c5ccc(NN)nc5)NC(=O)[C@@H](N)CS[C@H]4C)C(=O)N[C@@H](CS[C@H]2C)C(=O)N3)NC1=O [technetium-99m labelled]  tissue uptake (rat, saline control, liver; intravenous, 2 h after tracer, tracer 2 h after reperfusion): 1.21 ± 0.26 %ID/g
Cc1ccc(C(=O)N[C@H]2CC[C@@]3(O)[C@H]4Cc5ccc(O)c6c5[C@@]3(CCN4CC3CC3)[C@H]2O6)s1.Cl  withdrawal jumps (antagonist; morphine-pelleted Swiss Webster mice; subcutaneous, 20 mg/kg; reference: naloxone 1 mg/kg): increased
COc1ccc(N2C(=O)N(c3c(C)cccc3Cl)Cc3cnc(Nc4ccc(C5CCN(C)CC5)cc4OC)nc32)nc1  inhibition (WEE1 (Homo sapiens, UniProt P30291); kinase activity; 0.5 µM): 25%
CC[C@H](C)[C@H](NC(=O)[C@H](Cc1ccccc1)NC(=O)[C@H](CCC(=O)O)NC(=O)[C@H](CCCNC(=N)N)NC(=O)[C@H](C)NC(=O)[C@H](C)NC(=O)[C@H](CCC(N)=O)NC(=O)[C@H](CCCCNc1c(NCCCCCN(O)C(=O)CCC(=O)NCCCCCN(O)C(=O)CCC(=O)NCCCCCN(O)C(C)=O)c(=O)c1=O)NC(=O)[C@H](CCC(=O)O)NC(=O)[C@H](CC(C)C)NC(=O)[C@H](Cc1ccc(O)cc1)NC(=O)[C@H](CO)NC(=O)[C@H](CO)NC(=O)[C@@H](NC(=O)[C@H](CC(=O)O)NC(=O)[C@H](CO)NC(=O)[C@@H](NC(=O)[C@H](Cc1ccccc1)NC(=O)[C@@H](NC(=O)CNC(=O)[C@H](CCC(=O)O)NC(=O)[C@H](C)NC(=O)CCc1cnc[nH]1)[C@@H](C)O)[C@@H](C)O)C(C)C)C(=O)N[C@@H](C)C(=O)N[C@@H](Cc1c[nH]c2ccccc12)C(=O)N[C@@H](CC(C)C)C(=O)N[C@H](C(=O)N[C@@H](CCCNC(=N)N)C(=O)NCC(=O)N[C@@H](CCCNC(=N)N)C(=O)N[C@@H](CCCCNC(=O)COCCOCCNC(=O)COCCOCCNC(=O)CC[C@H](NC(=O)CCCCCCCCCCCCCCCCC(=O)O)C(=O)O)C(=O)NCC(=O)NCC(=O)N[C@@H](CO)C(=O)N[C@@H](CCCCNc1c(NCCCCCN(O)C(=O)CCC(=O)NCCCCCN(O)C(=O)CCC(=O)NCCCCCN(O)C(C)=O)c(=O)c1=O)C(=O)O)C(C)C  EC50 (GLP1R; cAMP reporter gene, agonist, CRE luciferase; BHK; with Zr, 1% HSA): 0.067 nM
COc1cc2c(Oc3ccc4[nH]c(C)cc4c3F)ccnc2cc1OCC1(N)CC1  incidence of adverse event (measured: grade 3 influenza-like symptoms; paediatric high-risk refractory sarcoma; whole group): 0%
CC[C@H](C)[C@H](NC(=O)[C@H](Cc1ccccc1)NC(=O)[C@H](CCC(=O)O)NC(=O)[C@H](CCCNC(=N)N)NC(=O)[C@H](C)NC(=O)[C@H](C)NC(=O)[C@H](CCC(N)=O)NC(=O)[C@H](CCCCNc1c(NCCCCCN(O)C(=O)CCC(=O)NCCCCCN(O)C(=O)CCC(=O)NCCCCCN(O)C(C)=O)c(=O)c1=O)NC(=O)[C@H](CCC(=O)O)NC(=O)[C@H](CC(C)C)NC(=O)[C@H](Cc1ccc(O)cc1)NC(=O)[C@H](CO)NC(=O)[C@H](CO)NC(=O)[C@H](CCCCNc1c(NCCCCCN(O)C(=O)CCC(=O)NCCCCCN(O)C(=O)CCC(=O)NCCCCCN(O)C(C)=O)c(=O)c1=O)NC(=O)[C@H](CC(=O)O)NC(=O)[C@H](CO)NC(=O)[C@@H](NC(=O)[C@H](Cc1ccccc1)NC(=O)[C@@H](NC(=O)CNC(=O)[C@H](CCC(=O)O)NC(=O)[C@H](C)NC(=O)CCc1cnc[nH]1)[C@@H](C)O)[C@@H](C)O)C(=O)N[C@@H](C)C(=O)N[C@@H](Cc1c[nH]c2ccccc12)C(=O)N[C@@H](CC(C)C)C(=O)N[C@H](C(=O)N[C@@H](CCCNC(=N)N)C(=O)NCC(=O)N[C@@H](CCCNC(=N)N)C(=O)N[C@@H](CCCCNC(=O)COCCOCCNC(=O)COCCOCCNC(=O)CC[C@H](NC(=O)CCCCCCCCCCCCCCCCC(=O)O)C(=O)O)C(=O)O)C(C)C  EC50 (GLP1R; cAMP reporter gene, agonist, CRE luciferase; BHK; with Zr, 0% HSA): 0.11 nM
OCc1ncc2n1-c1ccc(Cl)cc1C(c1ccccc1F)=NC2  AUC(0-inf) (human, plasma; oral, 7.5 mg of midazolam, day 26, arithmetic mean, no amenamevir): 44.1 ng·h/mL
Cc1onc(-c2c(F)cccc2Cl)c1C(=O)N[C@@H]1C(=O)N2[C@@H]1SC(C)(C)[C@@H]2C(=O)O  deviation from nominal concentration (human whole blood; concentration not given, 8 h, 4 °C): -1.5%
O=C(O)CNC(=O)C1C(=O)N(C2CCCCC2)C(=O)N(C2CCCCC2)C1=O  pKa (acidic): 3.3
O=C(O)c1cn(Cc2ccc(F)cc2)c2ccccc12  Km (glucuronidation; human liver microsomes; 60 min, 37 °C, added: UDPGA): 141 ± 39 µM
C=C1C[C@H]2[C@@H]3CC[C@H](O[C@@H]4O[C@H](C(=O)O)[C@@H](O)[C@H](O)[C@H]4O)[C@@]3(C)CC[C@@H]2[C@@]2(C)C=CC(=O)C=C12  share of total exemestane metabolites (postmenopausal women, serum; UGT2B17 and GSTA1 genotypes): 44%
Oc1ccc2c3c1O[C@H]1[C@@H](O)CC[C@@]4(O)[C@@H](C2)N(CC2CCC2)CC[C@]314  log2 fold change (Adhesion G-protein coupled receptor F3 (ADGRF3, Homo sapiens, UniProt Q8IZF5); β-arrestin recruitment, TANGO luminescence, measured: GPR113; concentration not given; reference: basal luminescence): 0.521
Cc1ncc(OC[C@@]2(c3cccc(F)c3)C[C@H]2C(=O)Nc2ccc(F)cn2)c(C)n1  fraction absorbed (estimated from MDCK Papp; MDCK knock-out, human; 1 µM, 90 min): 100%
CCCCCCCCCCC(=O)O[C@H]1CC[C@H]2[C@@H]3CCC4=CC(=O)CC[C@]4(C)[C@H]3CC[C@]12C  testosterone level (human male serum; 500 ng/mL, NaF 25.0 mg/mL, baseline testosterone 544 ng/dL): 524 ng/dL
CN1CC[C@]23c4c5ccc(O)c4O[C@H]2[C@@H](O)C=C[C@@]3(O)[C@H]1C5  logP (1 h): 0.78
